# Assay results collected from several papers.
# “And” joins repeats or separate records; there may be more than shown. ± marks the error that the study gave.
# ERAP1 L733R: Endoplasmic reticulum aminopeptidase 1 (ERAP1, Homo sapiens, UniProt Q9NZ08, L733R)
# Sequence of UniProt Q9NZ08 (whole entry, unmodified, looked up): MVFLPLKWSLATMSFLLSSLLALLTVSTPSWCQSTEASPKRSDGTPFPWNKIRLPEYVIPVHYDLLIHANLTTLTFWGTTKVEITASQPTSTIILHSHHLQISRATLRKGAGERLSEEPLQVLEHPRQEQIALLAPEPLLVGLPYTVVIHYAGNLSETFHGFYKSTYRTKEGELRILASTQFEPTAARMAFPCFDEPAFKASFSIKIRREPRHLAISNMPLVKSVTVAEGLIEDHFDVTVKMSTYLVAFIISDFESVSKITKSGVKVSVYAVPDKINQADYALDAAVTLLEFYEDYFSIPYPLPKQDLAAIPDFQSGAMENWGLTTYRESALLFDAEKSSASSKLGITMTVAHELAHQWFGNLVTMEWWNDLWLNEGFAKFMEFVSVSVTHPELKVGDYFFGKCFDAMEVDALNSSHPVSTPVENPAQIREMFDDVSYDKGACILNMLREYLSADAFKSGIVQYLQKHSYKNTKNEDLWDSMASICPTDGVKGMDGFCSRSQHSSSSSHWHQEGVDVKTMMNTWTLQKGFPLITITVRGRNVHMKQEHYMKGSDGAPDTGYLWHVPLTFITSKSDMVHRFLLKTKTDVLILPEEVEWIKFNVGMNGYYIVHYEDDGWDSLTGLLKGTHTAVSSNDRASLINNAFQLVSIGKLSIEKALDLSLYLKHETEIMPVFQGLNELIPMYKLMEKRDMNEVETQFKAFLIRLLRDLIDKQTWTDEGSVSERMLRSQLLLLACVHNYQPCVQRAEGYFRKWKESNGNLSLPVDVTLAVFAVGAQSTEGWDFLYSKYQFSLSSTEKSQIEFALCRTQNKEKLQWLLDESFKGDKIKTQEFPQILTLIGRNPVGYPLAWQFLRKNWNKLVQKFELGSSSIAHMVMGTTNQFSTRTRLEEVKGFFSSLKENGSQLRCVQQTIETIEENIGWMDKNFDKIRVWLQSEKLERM
# CFTR del508-508: Cystic fibrosis transmembrane conductance regulator (CFTR, Homo sapiens, UniProt P13569, del508-508)
# YAP1 WW2 domain: Transcriptional coactivator YAP1, WW2 domain (YAP1, Homo sapiens, UniProt P46937)
# KCNT1: Potassium channel subfamily T member 1 (KCNT1, Homo sapiens, UniProt Q5JUK3)
# Sequence of UniProt Q5JUK3 (whole entry, looked up): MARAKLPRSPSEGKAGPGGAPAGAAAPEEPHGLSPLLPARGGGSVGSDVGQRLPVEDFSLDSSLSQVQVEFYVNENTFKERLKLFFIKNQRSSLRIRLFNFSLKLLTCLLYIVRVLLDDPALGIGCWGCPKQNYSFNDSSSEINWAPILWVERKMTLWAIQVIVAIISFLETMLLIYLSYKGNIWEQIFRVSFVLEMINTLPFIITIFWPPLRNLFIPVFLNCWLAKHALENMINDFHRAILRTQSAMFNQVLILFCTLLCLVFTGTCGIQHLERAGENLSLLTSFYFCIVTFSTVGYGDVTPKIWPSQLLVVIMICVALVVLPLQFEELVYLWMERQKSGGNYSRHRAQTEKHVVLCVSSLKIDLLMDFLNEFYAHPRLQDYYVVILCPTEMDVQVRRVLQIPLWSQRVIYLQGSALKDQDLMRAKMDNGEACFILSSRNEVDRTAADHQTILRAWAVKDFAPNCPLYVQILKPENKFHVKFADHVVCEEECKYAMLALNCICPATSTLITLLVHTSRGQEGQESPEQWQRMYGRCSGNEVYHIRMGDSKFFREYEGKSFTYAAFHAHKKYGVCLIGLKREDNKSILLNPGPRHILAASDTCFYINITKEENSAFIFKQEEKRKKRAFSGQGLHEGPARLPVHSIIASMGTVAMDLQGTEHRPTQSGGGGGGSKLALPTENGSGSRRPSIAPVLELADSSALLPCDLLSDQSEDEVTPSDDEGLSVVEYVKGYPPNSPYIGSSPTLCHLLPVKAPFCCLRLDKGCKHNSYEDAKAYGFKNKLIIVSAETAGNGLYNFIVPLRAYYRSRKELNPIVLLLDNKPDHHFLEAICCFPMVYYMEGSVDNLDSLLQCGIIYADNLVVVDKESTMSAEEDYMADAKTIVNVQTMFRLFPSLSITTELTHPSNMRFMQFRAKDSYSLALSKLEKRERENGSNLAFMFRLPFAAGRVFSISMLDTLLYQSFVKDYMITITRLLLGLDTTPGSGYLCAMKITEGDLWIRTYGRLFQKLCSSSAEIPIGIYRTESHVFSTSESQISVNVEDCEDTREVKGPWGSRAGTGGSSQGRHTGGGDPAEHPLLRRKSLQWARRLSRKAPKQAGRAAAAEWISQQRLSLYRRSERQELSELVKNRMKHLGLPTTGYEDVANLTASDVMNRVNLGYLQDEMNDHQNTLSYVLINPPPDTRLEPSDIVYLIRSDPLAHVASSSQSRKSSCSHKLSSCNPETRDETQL
# Kelch domain-containing protein 2: Kelch domain-containing protein 2 (UniProt Q9Y2U9)
# Sequence of UniProt Q9Y2U9 (whole entry, looked up): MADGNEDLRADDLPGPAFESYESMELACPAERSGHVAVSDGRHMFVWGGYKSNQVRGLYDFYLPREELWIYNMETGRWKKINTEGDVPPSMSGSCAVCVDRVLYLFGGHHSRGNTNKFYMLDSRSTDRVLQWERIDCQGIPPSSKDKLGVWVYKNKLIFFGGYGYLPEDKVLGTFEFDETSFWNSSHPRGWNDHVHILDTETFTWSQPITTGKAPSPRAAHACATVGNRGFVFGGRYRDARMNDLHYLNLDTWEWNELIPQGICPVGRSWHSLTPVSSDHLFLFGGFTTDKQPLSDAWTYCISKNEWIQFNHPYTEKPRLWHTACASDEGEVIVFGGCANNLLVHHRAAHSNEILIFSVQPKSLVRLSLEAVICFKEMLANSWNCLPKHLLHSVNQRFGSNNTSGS
# T1: RNA G4, bulged parallel (Homo sapiens); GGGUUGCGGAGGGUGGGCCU
# T2: dsDNA, self-complementary 60-mer; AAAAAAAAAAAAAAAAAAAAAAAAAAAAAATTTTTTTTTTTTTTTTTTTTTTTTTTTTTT
# Sequence of UniProt P24612 (whole entry, unmodified, looked up): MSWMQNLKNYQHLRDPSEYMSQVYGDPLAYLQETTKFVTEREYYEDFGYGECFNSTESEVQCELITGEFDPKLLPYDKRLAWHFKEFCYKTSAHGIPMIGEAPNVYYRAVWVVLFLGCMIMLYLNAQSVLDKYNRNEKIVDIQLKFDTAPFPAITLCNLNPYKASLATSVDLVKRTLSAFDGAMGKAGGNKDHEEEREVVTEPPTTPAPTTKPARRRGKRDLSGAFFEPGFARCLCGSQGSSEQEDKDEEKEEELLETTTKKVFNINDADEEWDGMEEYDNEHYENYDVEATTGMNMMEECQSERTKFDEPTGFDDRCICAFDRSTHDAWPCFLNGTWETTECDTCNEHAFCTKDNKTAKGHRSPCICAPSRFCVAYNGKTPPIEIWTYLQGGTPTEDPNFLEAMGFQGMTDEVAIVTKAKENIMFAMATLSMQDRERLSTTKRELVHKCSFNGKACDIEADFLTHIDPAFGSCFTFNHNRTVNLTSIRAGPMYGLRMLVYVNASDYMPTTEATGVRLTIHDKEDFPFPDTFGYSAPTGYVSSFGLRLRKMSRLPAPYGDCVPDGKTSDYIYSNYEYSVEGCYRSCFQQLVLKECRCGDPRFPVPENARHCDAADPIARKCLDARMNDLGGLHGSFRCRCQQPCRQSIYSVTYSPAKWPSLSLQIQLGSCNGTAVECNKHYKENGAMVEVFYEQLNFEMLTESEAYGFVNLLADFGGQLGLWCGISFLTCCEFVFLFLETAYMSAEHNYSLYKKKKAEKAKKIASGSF
# Sequence of UniProt P28593 (whole entry, looked up): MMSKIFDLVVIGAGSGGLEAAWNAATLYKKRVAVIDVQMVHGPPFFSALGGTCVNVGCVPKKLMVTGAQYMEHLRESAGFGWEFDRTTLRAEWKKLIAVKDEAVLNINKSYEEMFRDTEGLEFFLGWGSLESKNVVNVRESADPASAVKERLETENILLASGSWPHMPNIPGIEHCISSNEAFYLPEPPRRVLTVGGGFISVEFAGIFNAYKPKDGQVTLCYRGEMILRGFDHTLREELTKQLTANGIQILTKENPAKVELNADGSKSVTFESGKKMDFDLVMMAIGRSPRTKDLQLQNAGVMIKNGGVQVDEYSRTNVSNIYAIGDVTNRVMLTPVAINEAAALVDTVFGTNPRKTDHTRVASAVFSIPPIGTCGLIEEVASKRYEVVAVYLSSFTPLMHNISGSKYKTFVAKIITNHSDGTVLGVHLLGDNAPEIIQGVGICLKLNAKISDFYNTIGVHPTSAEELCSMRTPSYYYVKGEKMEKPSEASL
# Sequence of UniProt P68104 (whole entry, looked up): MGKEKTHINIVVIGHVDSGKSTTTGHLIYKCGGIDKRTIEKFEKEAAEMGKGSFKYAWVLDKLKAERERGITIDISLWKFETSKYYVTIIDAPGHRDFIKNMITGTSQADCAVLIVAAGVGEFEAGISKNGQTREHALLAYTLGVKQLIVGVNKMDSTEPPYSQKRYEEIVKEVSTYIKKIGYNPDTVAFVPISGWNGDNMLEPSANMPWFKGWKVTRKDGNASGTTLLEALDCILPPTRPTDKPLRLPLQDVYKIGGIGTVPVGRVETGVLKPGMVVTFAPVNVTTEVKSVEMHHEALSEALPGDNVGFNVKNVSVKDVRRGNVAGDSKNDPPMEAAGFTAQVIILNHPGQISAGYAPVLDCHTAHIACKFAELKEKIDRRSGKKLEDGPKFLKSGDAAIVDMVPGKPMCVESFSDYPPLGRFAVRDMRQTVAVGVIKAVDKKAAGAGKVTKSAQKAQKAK
# Sequence of UniProt Q13637 (whole entry, looked up): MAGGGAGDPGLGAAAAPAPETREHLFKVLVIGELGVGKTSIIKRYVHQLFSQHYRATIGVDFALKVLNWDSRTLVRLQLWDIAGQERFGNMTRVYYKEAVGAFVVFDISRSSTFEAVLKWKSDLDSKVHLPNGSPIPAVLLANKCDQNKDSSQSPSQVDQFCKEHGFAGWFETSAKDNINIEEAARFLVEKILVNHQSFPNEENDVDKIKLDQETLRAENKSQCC
Molecule,target,test,test system,conditions,how to read,measurement,value
Cc1cc(=O)oc2cc(NC(=O)[C@@H](N)CC(C)C)ccc12,ERAP1 L733R,"hydrolysis of compound, substrate",,"varied from 0 µM, 5 min, pH 8.0, 27 °C, mutant L733R, no peptide activator",,Vmax,50 ± 1 nmol/min/µg
N[C@@H](Cc1cn(Cc2ccccc2)cn1)C(=O)O,"Large neutral amino acids transporter small subunit 1 (SLC7A5, Homo sapiens, UniProt Q01650)",substrate,HEK293 expressing human LAT1,"200 µM, 3 min, added: [3H]-gabapentin preloaded",relative to: L-phenylalanine,relative efflux,81%
YSLAAVVLGLVQSLNRQRQKQLLNE,"Calmodulin-1 (Calm1, Rattus norvegicus, UniProt P0DP29, D21A/D57A)","Ca2+ dissociation, stopped-flow quin-2 fluorescence",peptide,"2 µM, pH 7.4, 22 °C, added: Ca2+-calmodulin complex",,koff2,3.84 s⁻¹ and 3.8 s⁻¹
IINFEKE,"Endoplasmic reticulum aminopeptidase 1 (ERAP1, Homo sapiens, UniProt Q9NZ08, I681R)",substrate,peptide,"pH 8.0, 27 °C, mutant I681R, added: L-AMC, peptide activator 100 µM",,K1/2 of L-AMC,0.24 ± 0.06 mM
COc1ccc(C(=O)NCCCNc2nc3cc(C)cc(C)c3cc2C#N)cc1,CFTR del508-508,"CFTR correction, corrector, iodide influx rate",FRT expressing YFP-H148Q/I152L,"up to 25 µM, 16-20 h, 37 °C, added: forskolin 20 µM, genistein 50 µM",,Vmax,112 µM/s
CC(C)C[C@H](NC(=O)[C@@H](NC(=O)[C@@H](N)[C@@H](C)O)C(C)C)C(=O)N1CCC[C@H]1C(=O)N1CCC[C@H]1C(=O)N1CCC[C@H]1C(=O)N1CCC[C@H]1C(=O)N[C@@H](Cc1ccc(O)cc1)C(=O)N[C@@H](CCCNC(=N)N)C(=O)N[C@@H](Cc1c[nH]cn1)C(=O)N[C@@H](CCCNC(=N)N)C(=O)N[C@@H](CC(N)=O)C(=O)O,YAP1 WW2 domain,"binding, ITC",,"pH 7.0, 25 °C, WW2 domain",,ΔH,-7.72 ± 0.54 kcal/mol
O=S(=O)(Sc1cccc(F)c1)c1cccc(F)c1,tubulin,colchicine binding,,"5 µM, 10 min, 37 °C, added: 5.0 µM [3H]colchicine",,inhibition,8.9 ± 0.9%
CCNc1ccccc1S(=O)(=O)N1CC(c2nc(-c3ccsc3)no2)C1,KCNT1,"Tl+ flux, inhibitor",HEK293 expressing KCNT1,30 µM,,activity class,inactive
CC(C)CCN[C@@H]1C[C@@H](c2ccc(Cl)c(Cl)c2)c2ccccc21 (relative stereo),"Trypanothione reductase (TPR, Trypanosoma cruzi, UniProt P28593)","enzyme activity, mixed inhibitor",,added: trypanothione disulfide 0.58 to 50 µM,,Ki',16.8 ± 3.3 µM
COc1ccc([C@@H]2CC(=O)c3c(O)cc(O)cc3O2)cc1O,"Sulfotransferase 1A1 (SULT1A1, Homo sapiens, UniProt P50225)",substrate,recombinant enzyme,,,substrate inhibition onset,> 16 µM
CC(C)C[C@H](NC(=O)[C@@H](NC(=O)[C@@H](N)[C@@H](C)O)C(C)C)C(=O)N1CCC[C@H]1C(=O)N1CCC[C@H]1C(=O)N1CCC[C@H]1C(=O)N1CCC[C@H]1C(=O)N[C@@H](Cc1ccc(O)cc1)C(=O)N[C@@H](CCCNC(=N)N)C(=O)N[C@@H](C)C(=O)N[C@@H](CCCNC(=N)N)C(=O)N[C@@H](CC(N)=O)C(=O)O,YAP1 WW2 domain,"binding, ITC",,"pH 7.0, 25 °C, WW2 domain",,ΔG,-5.93 ± 0.09 kcal/mol
NS(=O)(=O)c1ccc(N2N=C(C(F)(F)F)C[C@H]2c2ccc(F)cc2F)cc1,"Prostaglandin G/H synthase 1 (Canis lupus familiaris, UniProt Q8HZR1)","TXB2 formation, inhibitor",clotting dog whole blood,"1 h, 37 °C",,IC80,169 µM
COc1ccc(Cl)cc1Nc1nc2c(s1)CCCCc1nc(NC(=O)C(C)(C)C)sc1-2,CFTR del508-508,"iodide influx, corrector, YFP halide quenching",FRT cells expressing YFP-H148Q/I152L,"16 to 20 h, 37 °C, genistein 50 µM, added: forskolin 20 µM",,Vmax,512 µM/s
C=C[C@H](C)C[C@@H]1NC(=O)[C@H]([C@H](O)C(C)C)N(C)C(=O)[C@H](C)N(C)C(=O)[C@@H]([C@@H](C)CC)NC(=O)[C@@H]([C@H](O)C(C)C)NC(=O)[C@H]2CCCCN2C(=O)[C@H](C)N(C)C1=O,"Elongation factor 1-alpha 1, ternary complex on ribosome (EEF1A1, Homo sapiens, UniProt P68104)","inhibitor, smFRET washout",,"10 µM, 30 s preincubation, 25 °C",,residence time,1.37 min
O=Cc1c(O)cc(C(F)(F)F)cc1C(F)(F)F,"CD209 antigen (CD209, Homo sapiens, UniProt Q9NNX6)","activator, plate-based HRP",,"500 µM, overnight, 4 °C or RT",relative to: DMSO control,HRP binding,≥ 50%
CCOc1ccccc1S(=O)(=O)N1CC(c2nc(-c3ccc(F)cc3)c[nH]2)C1,KCNT1,"Tl+ flux, activator",HEK293 expressing KCNT1,30 µM,relative to: loxapine maximum response,efficacy,31%
CC(C)C[C@H](NC(=O)[C@@H](NC(=O)[C@@H](N)[C@@H](C)O)C(C)C)C(=O)N1CCC[C@H]1C(=O)N1CCC[C@H]1C(=O)N1CCC[C@H]1C(=O)N[C@@H](C)C(=O)N[C@@H](Cc1ccc(O)cc1)C(=O)N[C@@H](CCCNC(=N)N)C(=O)N[C@@H](Cc1c[nH]cn1)C(=O)N[C@@H](CCCNC(=N)N)C(=O)N[C@@H](CC(N)=O)C(=O)O,"Transcriptional coactivator YAP1, WW1 domain (YAP1, Homo sapiens, UniProt P46937)","binding, ITC",,"pH 7.0, 25 °C, WW1 domain",,ΔH,-12.7 ± 0.49 kcal/mol
CC[C@H](C)[C@H](NC(=O)[C@H](CC(C)C)NC(=O)[C@H](CC(C)C)NC(=O)CNC(=O)[C@H](Cc1ccc(O)cc1)NC(=O)[C@H](CCCNC(=N)N)NC(=O)[C@H](CO)NC(C)=O)C(=O)N[C@@H](CCCCN)C(=O)N[C@@H](C)C(=O)N[C@@H](Cc1ccccc1)C(=O)N[C@@H](CO)C(=O)N[C@@H](CCSC)C(=O)N[C@H](C(=O)N[C@@H](C)C(=O)N[C@@H](C)C(=O)N[C@@H](CCC(=O)O)C(=O)N[C@H](C(=O)N[C@@H](C)C(=O)N[C@@H](CCCNC(=N)N)C(=O)N[C@@H](CCCNC(=N)N)C(=O)N[C@H](C(=O)N[C@@H](CCCNC(=N)N)C(=O)N[C@@H](CCC(=O)O)C(=O)N[C@@H](Cc1ccccc1)C(=O)N[C@@H](CCCNC(=N)N)C(N)=O)[C@@H](C)O)[C@@H](C)O)[C@@H](C)O,calmodulin 1-148 sites III and IV,"calcium binding, Tyr fluorescence titration",,"12 µM, pH 7.4, 22 °C, added: 6 µM calmodulin",,apparent ΔG2,-16.1 ± 0.23 kcal/mol
Nc1nc2c(ncn2[C@@H]2O[C@H](COP(=O)(O)OP(=O)(O)OP(=O)(O)O)[C@@H](O)[C@H]2O)c(=O)[nH]1,"RAB32 (Homo sapiens, UniProt Q13637)","nucleotide binding, radiolabelled nucleotide association",,"pH 7.5, nucleotide-depleted GST fusion protein, low magnesium",,half-time of association,12 min
CSCC[C@H](NC(=O)[C@H](CCC(=O)O)NC(=O)[C@@H]1CCCN1C(=O)[C@@H](NC(=O)[C@@H]1CCCN1)[C@@H](C)O)C(=O)N[C@@H](CCCNC(=N)N)C(=O)N[C@@H](CCC(=O)O)C(=O)N[C@@H](CCCCN)C(=O)N[C@@H](CC(C)C)C(=O)N[C@H]1CSSC[C@@H]2NC(=O)[C@@H](NC(=O)[C@H](Cc3ccc(O)cc3)NC(=O)[C@H](CCCNC(=N)N)NC(=O)[C@H](C)NC(=O)[C@@H]3CCCN3C(=O)[C@H](CC(N)=O)NC(=O)[C@@H](NC(=O)[C@H](C)NC(=O)[C@H](C)NC(=O)[C@H](C)N)[C@@H](C)O)CSSC[C@H](NC(=O)CNC(=O)[C@H](CO)NC(=O)[C@H](CC(C)C)NC2=O)C(=O)N[C@@H]([C@@H](C)O)C(=O)N[C@@H](CCC(N)=O)C(=O)N[C@@H](CCC(N)=O)C(=O)N[C@@H](CC(=O)O)C(=O)N[C@@H](CC(C)C)C(=O)N[C@@H](CC(C)C)C(=O)N[C@@H]([C@@H](C)O)C(=O)N[C@@H](CC(C)C)C(=O)N[C@H](C(=O)N2CCC[C@H]2C(=O)N[C@@H](Cc2ccc(O)cc2)C(=O)O)CSSC[C@@H](C(=O)NCC(=O)NCC(=O)N2CCC[C@H]2C(=O)N[C@@H](CCCNC(=N)N)C(=O)N[C@@H](Cc2c[nH]c3ccccc23)C(=O)N[C@@H](CO)C(=O)N[C@H](C(=O)N[C@@H](CCC(=O)O)C(=O)N[C@@H](C)C(=O)O)[C@@H](C)O)NC(=O)[C@H](C(C)C)NC(=O)[C@H](CCCNC(=N)N)NC(=O)[C@H](C(C)C)NC(=O)[C@H](CC(C)C)NC(=O)[C@H](C)NC(=O)[C@H](CCCNC(=N)N)NC(=O)[C@H](C(C)C)NC(=O)[C@H](Cc2ccccc2)NC(=O)[C@H](Cc2c[nH]cn2)NC(=O)[C@H](Cc2c[nH]cn2)NC(=O)CNC1=O,"Relaxin receptor 2 (RXFP2, Homo sapiens, UniProt Q8WXD0)","cAMP production, agonist, CAMYEL BRET",HEK293 expressing RXFP2,"45 min, 37 °C",relative to: forskolin 10 µM,Emax,94.8 ± 2.89%
NCCOc1cc(NC(=O)c2cc(OCc3cn(CCC(=O)O)nn3)cc(C(=O)Nc3cc(OCCN)c4ccccc4n3)n2)nc2ccccc12,"T1, RNA G4, bulged parallel (Homo sapiens)","protein displacement, competitor, microscale thermophoresis",,"pH 7.5, 25 °C, KCl 150 mM, MgCl2 1 mM, added: nucleolin 80 nM",,IC50,0.122 µM
CC(=O)[C@H]1CC[C@H]2[C@@H]3CCC4=CC(=O)CC[C@]4(C)[C@H]3CC[C@]12C,"Kcnj13 (Mus musculus, UniProt P86046)","activator, whole-cell patch clamp",HEK293 transfected,"10 µM, pH 7.3",,current potentiation,~5 fold
NC(=NCc1ccccc1)NC(=O)c1nc(Cl)c(N)nc1N,"Degenerin mec-4 (mec-4, Caenorhabditis elegans, UniProt P24612, A713T)","ion current, two-electrode voltage clamp",Xenopus oocytes coexpressing MEC-2,"30 µM, -85 mV","relative to: uninjected oocytes, positive inhibition, negative potentiation",current change,7.81 µA
LPEFGG,Kelch domain-containing protein 2,native mass spectrometry,"peptide, 200 mM ammonium acetate","20 µM Kelch domain-containing protein 2, pH 7",relative to: total Kelch domain-containing protein 2 signal,fraction of protein bound,4.9%
O=c1c(-c2ccc(O)cc2)coc2cc(O)cc(O)c12,"Cyclic nucleotide-gated channel alpha-1 (CNGA1, Bos taurus, UniProt Q00194)","cGMP-activated current, blocker, inside-out patch clamp, item: PTK-bound blocked channels",Xenopus oocytes,added: saturating cGMP,,fraction of current,≥ 40%
O=S(=O)(Sc1ccc(Br)cc1)c1ccc(Br)cc1,tubulin,colchicine binding,,"5 µM, 10 min, 37 °C, added: 5.0 µM [3H]colchicine",,inhibition,6.6 ± 4%
GSRPQRLLWQTAVRHITEQRFIHGH,"Calmodulin-1 (Calm1, Rattus norvegicus, UniProt P0DP29)","Ca2+ dissociation, stopped-flow quin-2 fluorescence",peptide,"2 µM, pH 7.4, 22 °C, added: Ca2+-calmodulin complex",,koff2,0.5 s⁻¹ and 0.49 s⁻¹
CCOc1ccccc1S(=O)(=O)N1CC(c2nc(-c3ncccn3)no2)C1,KCNT1,"Tl+ flux, inhibitor",HEK293 expressing KCNT1,30 µM,,activity class,inactive
NC[C@@H]1O[C@H](O[C@H]2[C@@H](O)[C@H](O[C@@H]3[C@@H](O)[C@H](N)C[C@H](N)[C@H]3O[C@H]3O[C@H](CN)[C@@H](O)[C@H](O)[C@H]3N)O[C@@H]2CO)[C@H](N)[C@@H](O)[C@@H]1O,"T2, dsDNA, self-complementary 60-mer","competitor, fluorescence intercalator displacement",,"pH 6.8, 20 °C, KCl 100 mM, added: thiazole orange",,binding,binds weakly
Cc1cc(C)c2cc(C#N)c(NCCNC(=O)c3cnccn3)nc2c1,CFTR del508-508,"iodide influx, potentiator",FRT expressing ΔF508-CFTR and YFP,"up to 50 µM, low-temperature rescued, added: forskolin 20 µM",,EC50,inactive
LVYGG,Kelch domain-containing protein 2,native mass spectrometry,"peptide, 200 mM ammonium acetate","20 µM Kelch domain-containing protein 2, pH 7",relative to: total Kelch domain-containing protein 2 signal,fraction of protein bound,2.3%
IINFEKL,ERAP1 L733R,"L-AMC hydrolysis, activator",peptide,"100 µM, 5 min, pH 8.0, 27 °C, mutant L733R, added: L-AMC varied from 0 µM",,Vmax,84 ± 1 nmol/min/µg
